Published values collected from several papers.
± gives the spread as reported.

For `CC[C@H](C)[C@H](NC(=O)[C@H](CCCNC(=N)N)NC(=O)[C@H](CCCNC(=N)N)NC(=O)[C@@H]1CCCN1C(=O)[C@@H]1CCCN1C(=O)[C@H](CCCNC(=N)N)NC(=O)[C@@H]1CCCN1C(=O)[C@H](CCCNC(=N)N)NC(=O)[C@@H]1CCCN1C(=O)[C@H](CCCCN)NC(=O)[C@H](Cc1ccc(O)cc1)NC(=O)[C@@H]1CCCN1C(=O)[C@H](CCCNC(=N)N)NC(=O)[C@H](CCCCN)NC(=O)[C@H](CC(=O)O)NC(=O)[C@@H](N)C(C)C)C(=O)N[C@@H](Cc1ccc(O)cc1)C(=O)N[C@@H](CC(N)=O)C(=O)N[C@@H](CCCNC(=N)N)C(N)=O`, the MIC was 0.39 ± 0.18 µg/mL (Salmonella enterica serovar Typhimurium; bacterial growth; SL1344).
For `COc1cc(OC)cc(C(=O)N/N=C/c2ccccc2Cl)c1`, the MIC was 16.2 µM (Candida albicans, Aspergillus niger; fungal growth).
The MIC of `O=C(NCc1ccc2c(c1)OCO2)c1ncc(Br)cc1F` is reported as 50 µM (Aspergillus brasiliensis; microbial growth; ATCC16404; 72 h).
With `CCCCCCCCCCCC(=O)N/N=C/c1ccccc1` the MIC was 61.7 µM (Candida albicans, Aspergillus niger; fungal growth).
`CC(C)C[C@H](NC(=O)[C@H](CCCNC(=N)N)NC(=O)[C@H](CC(C)C)NC(=O)[C@@H](NC(=O)[C@H](CC(C)C)NC(=O)[C@H](Cc1c[nH]cn1)NC(=O)[C@H](C)NC(=O)[C@@H](NC(=O)[C@@H](N)CO)[C@@H](C)O)C(C)C)C(=O)N[C@@H](CCCNC(=N)N)C(=O)NCC(=O)NCC(=O)O` gave an MIC of 50 µM (Bacillus megaterium; 899; 37 °C, ≥90% viability decrease).
The MIC of `LSTFFRLFNGRRRRSVQWCA` is reported as 49.8 ± 16.9 µg/mL (Streptococcus gordonii; broth microdilution; peptide, ATCC 10558; 24 h, 37 °C, planktonic, anaerobic).
For `CC(C)C[C@H](NC(=O)[C@H](CCCNC(=N)N)NC(=O)[C@@H]1CCCN1C(=O)[C@H](CCCNC(=N)N)NC(=O)[C@@H]1CCCN1C(=O)[C@@H]1CCCN1C(=O)[C@H](CCCNC(=N)N)NC(=O)[C@@H]1CCCN1C(=O)[C@H](CCC(N)=O)NC(=O)[C@@H]1CCCN1C(=O)[C@H](CCCNC(=N)N)NC(=O)[C@H](Cc1ccc(O)cc1)NC(=O)[C@@H](NC(=O)[C@@H]1CCCN1C(=O)[C@H](CCCNC(=N)N)NC(=O)[C@H](CC(N)=O)NC(=O)[C@H](CC(N)=O)NC(=O)CN)C(C)C)C(=O)O`, the MIC was 0.126 ± 0.052 µM (Salmonella enterica serovar Typhimurium; SL1344, Mueller-Hinton broth; 18 h, 37 °C).
`actinomycin Y4` gave an MIC of 4.66 µg/mL (Micrococcus luteus; broth microdilution; ATCC 15307; 16 to 48 h).
`CC[C@H](C)[C@H](NC(=O)[C@@H]1CCCN1C(=O)[C@H](CCCCN)NC(=O)[C@@H]1CCCN1C(=O)[C@@H]1CCCN1C(=O)[C@@H](NC(=O)[C@@H]1CCCN1C(=O)[C@H](CCCNC(=N)N)NC(=O)[C@@H]1CCCN1C(=O)[C@H](CCCNC(=N)N)NC(=O)[C@H](Cc1ccc(O)cc1)NC(=O)[C@H](CO)NC(=O)CNC(=O)[C@H](CCCCN)NC(=O)[C@H](CC(=O)O)NC(=O)[C@@H](N)C(C)C)[C@@H](C)O)C(=O)N[C@@H](Cc1ccc(O)cc1)C(=O)N[C@@H](CC(N)=O)C(=O)N[C@@H](CCCNC(=N)N)C(=O)N[C@@H](CC(N)=O)C(=O)O` gave an MIC of 0.075 ± 0.018 µM (Salmonella enterica serovar Typhimurium; SL1344, Mueller-Hinton broth; 18 h, 37 °C).
`Cc1cccc(C(=O)N/N=C/c2ccccc2Cl)c1` has an MIC of 37.2 µM (Candida albicans, Aspergillus niger; fungal growth).
`CCOC(=O)[C@]1(CS)N[C@H](C(=O)O)C(C)(C)S1` gave an MIC of 4 µg/mL (Proteus mirabilis; broth microdilution; clinical isolate; compound at 100 mg/L, added: meropenem).
For `CC(C)C[C@H](NC(=O)[C@H](CCCNC(=N)N)NC(=O)[C@H](CCCNC(=N)N)NC(=O)[C@H](CCCNC(=N)N)NC(=O)[C@H](CCCNC(=N)N)NC(=O)[C@H](CCCCN)NC(=O)[C@@H](N)C(C)C)C(=O)N[C@@H](C)C(=O)NCC(=O)N[C@@H](Cc1ccccc1)C(=O)N[C@@H](CCCNC(=N)N)C(=O)N[C@H](C(=O)N[C@H](C(=O)N[C@@H](CCCNC(=N)N)C(=O)NCC(=O)N[C@@H](Cc1ccc(O)cc1)C(=O)O)C(C)C)[C@@H](C)O`, the MIC was 8 µM (Micrococcus luteus).
The MIC of `COc1cc(OC)cc(C(=O)N/N=C/c2ccccc2)c1` is reported as 15.5 µM (Candida albicans, Aspergillus niger; fungal growth).
`LSTFFRLFNRSFTQGRRRRSVQWCA` has an MIC of 49.8 ± 16.9 µg/mL (Streptococcus gordonii; broth microdilution; peptide, ATCC 10558; 24 h, 37 °C, planktonic, anaerobic).
`Cc1cccc(C(=O)N/N=C/c2ccccc2)c1` gave an MIC of 18.6 µM (Candida albicans, Aspergillus niger; fungal growth).
The MIC of `CC(=O)C1=C(O)C(CC(C)C)NC1=O` (stereo not shown) is reported as over 128 µg/mL (Clostridioides difficile; microbial growth, broth dilution; BAA1803; 24 h).
`CC[C@H](C)[C@H](NC(=O)[C@@H]1CCCN1C(=O)[C@H](CCCCN)NC(=O)[C@@H]1CCCN1C(=O)[C@@H]1CCCN1C(=O)[C@@H](NC(=O)[C@@H]1CCCN1C(=O)[C@H](CCCNC(=N)N)NC(=O)[C@@H]1CCCN1C(=O)[C@H](CCCCN)NC(=O)[C@H](Cc1ccc(O)cc1)NC(=O)[C@H](CO)NC(=O)CNC(=O)[C@H](CCCCN)NC(=O)[C@H](CC(=O)O)NC(=O)[C@@H](N)C(C)C)[C@@H](C)O)C(=O)N[C@@H](Cc1ccc(O)cc1)C(=O)N[C@@H](CC(N)=O)C(=O)N[C@@H](CCCNC(=N)N)C(=O)N[C@@H](CC(N)=O)C(=O)O` gave an MIC of 0.15 ± 0.034 µM (Salmonella enterica serovar Typhimurium; SL1344, Mueller-Hinton broth; 18 h, 37 °C).
For `TFFRLFNRGRRRRSVQWCA`, the MIC was 99.6 ± 33.7 µg/mL (Streptococcus sanguinis; broth microdilution; peptide, ATCC 49295; 24 h, 37 °C, planktonic, anaerobic).
The MIC of `OC(Cn1cncn1)(Cn1cncn1)c1ccc(F)cc1F` is reported as 2.29 µM (Candida albicans, Aspergillus niger; fungal growth).
`CSCC[C@H](NC(=O)[C@H](Cc1ccc(O)cc1)NC(=O)[C@H](CCCNC(=N)N)NC(=O)[C@H](CCC(N)=O)NC(=O)[C@H](CO)NC(=O)[C@H](CO)NC(=O)[C@H](CCCCN)NC(=O)[C@H](CCCCN)NC(=O)[C@H](CO)NC(=O)[C@H](CCCCN)NC(=O)[C@H](CCC(N)=O)NC(=O)[C@H](CCCCN)NC(=O)[C@H](CCCNC(=N)N)NC(=O)[C@H](CCCCN)NC(=O)[C@H](CO)NC(=O)[C@H](CCCNC(=N)N)NC(=O)[C@H](Cc1c[nH]c2ccccc12)NC(=O)[C@H](CCCCN)NC(=O)[C@@H](N)CCCNC(=N)N)C(=O)O` gave an MIC of 4 µM (Micrococcus luteus).
`CCCCCCCCCCCCCCCCCC(=O)N/N=C/c1ccccc1Cl` has an MIC of 27.5 µM (Candida albicans, Aspergillus niger; fungal growth).
With `O=C(NCc1ccc2c(c1)OCO2)c1ccc(Br)cc1F` the MIC was 50 µM (Saccharomyces cerevisiae; microbial growth; 72 h).
`CCOC(=O)[C@@]1(CS)N[C@@H](C(=O)O)CS1` gave an MIC of 8 µg/mL (Proteus mirabilis; broth microdilution; clinical isolate; compound at 100 mg/L, added: meropenem).
For `CC(C)C[C@H](NC(=O)[C@H](C)NC(=O)[C@H](CC(C)C)NC(=O)[C@@H](NC(=O)[C@@H](N)CO)[C@@H](C)O)C(=O)N[C@H](C(=O)N[C@@H](CC(C)C)C(=O)N[C@@H](CCCNC(=N)N)C(=O)N[C@@H](CC(C)C)C(=O)N[C@@H](CCCNC(=N)N)C(=O)NCC(=O)NCC(=O)O)C(C)C`, the MIC was 10 µM (Bacillus megaterium; 899; 37 °C, ≥90% viability decrease).
`CC(C)C[C@H](NC(=O)CNC(=O)[C@H](C)NC(=O)[C@@H](N)CCCNC(=N)N)C(=O)N[C@@H](CCC(N)=O)C(=O)N[C@@H](Cc1ccccc1)C(=O)N1CCC[C@H]1C(=O)N[C@H](C(=O)NCC(=O)N[C@@H](CCCNC(=N)N)C(=O)N[C@H](C(=O)N[C@@H](Cc1c[nH]cn1)C(=O)N[C@@H](CCCNC(=N)N)C(=O)N[C@@H](CC(C)C)C(=O)N[C@@H](CC(C)C)C(=O)N[C@@H](CCCNC(=N)N)C(=O)N[C@@H](CCCCN)C(N)=O)C(C)C)C(C)C` gave an MIC of over 32 µM (Enterobacter aerogenes; ATCC 13048; 18 to 20 h).
With `STFFRLFNRSFTQGRRRRSVQWCA` the MIC was 99.6 ± 33.7 µg/mL (Streptococcus sanguinis; broth microdilution; peptide, ATCC 49295; 24 h, 37 °C, planktonic, anaerobic).
`O=C(N/N=C/c1ccccc1Cl)c1cc([N+](=O)[O-])cc([N+](=O)[O-])c1` has an MIC of 14.8 µM (Candida albicans, Aspergillus niger; fungal growth).
The MIC of `TFFRLFNRSFTGRRRRSVQWCA` is reported as 99.6 ± 33.7 µg/mL (Streptococcus sanguinis; broth microdilution; peptide, ATCC 49295; 24 h, 37 °C, planktonic, anaerobic).
With `CC(C)C[C@H](NC(=O)[C@H](C)NC(=O)[C@H](CC(C)C)NC(=O)[C@H](Cc1c[nH]cn1)NC(=O)[C@H](CC(C)C)NC(=O)[C@@H](NC(=O)[C@@H](N)CO)[C@@H](C)O)C(=O)N[C@@H](CCCNC(=N)N)C(=O)N[C@@H](CC(C)C)C(=O)N[C@@H](CCCNC(=N)N)C(=O)NCC(=O)NCC(=O)O` the MIC was 50 µM (Bacillus megaterium; 899; 37 °C, ≥90% viability decrease).
`CC[C@H](C)[C@H](NC(=O)CN)C(=O)NCC(=O)N[C@@H](C)C(=O)N[C@H](C(=O)N[C@@H](CC(C)C)C(=O)N[C@@H](CCCCN)C(=O)N[C@H](C(=O)N[C@@H](CC(C)C)C(=O)N[C@H](C(=O)N[C@H](C(=O)NCC(=O)N[C@@H](CC(C)C)C(=O)N1CCC[C@H]1C(=O)N[C@@H](C)C(=O)N[C@@H](CC(C)C)C(=O)N[C@H](C(=O)N[C@@H](CO)C(=O)N[C@@H](Cc1c[nH]c2ccccc12)C(=O)N[C@H](C(=O)N[C@@H](CCCCN)C(=O)N[C@@H](CCCNC(=N)N)C(=O)N[C@@H](CCCCN)C(=O)N[C@@H](CCCNC(=N)N)C(=O)N[C@@H](CCC(N)=O)C(=O)N[C@@H](CCC(N)=O)C(N)=O)[C@@H](C)CC)[C@@H](C)CC)[C@@H](C)O)[C@@H](C)O)C(C)C)C(C)C` has an MIC of 1.6 µM (Salmonella typhimurium; broth microdilution; KCTC 1926; 16 h, 37 °C).
With `CC[C@H](C)[C@H](NC(=O)[C@H](C)N)C(=O)N[C@@H](CCCCN)C(=O)N[C@H](C(=O)N[C@@H](CCCNC(=N)N)C(=O)N[C@@H](CCCCN)C(=O)N[C@@H](CC(C)C)C(=O)N[C@@H](Cc1ccccc1)C(=O)N[C@@H](CCCCN)C(=O)N[C@@H](CCCCN)C(=O)N[C@@H](CC(C)C)C(=O)N[C@@H](CC(C)C)C(=O)N[C@@H](CCCNC(=N)N)C(N)=O)[C@@H](C)CC` the MIC was 50 to 100 µg/mL (Escherichia coli; ATCC 25922; 1 h, 37 °C, dividing cells in LB).
`CN[C@@](C)(C[18F])C(=O)O` gave a tissue uptake of 21 ± 2.3 %ID/g (SCID mouse SK-OV-3 xenograft, pancreas; 60 min, post injection).
With `CC(C)C[C@H](NC(=O)[C@H](CCCNC(=N)N)NC(=O)[C@H](CC(C)C)NC(=O)[C@@H](NC(=O)[C@H](C)NC(=O)[C@H](Cc1c[nH]cn1)NC(=O)[C@H](CC(C)C)NC(=O)[C@@H](NC(=O)[C@@H](N)CO)[C@@H](C)O)C(C)C)C(=O)N[C@@H](CCCNC(=N)N)C(=O)NCC(=O)NCC(=O)O` the MIC was 50 µM (Bacillus megaterium; 899; 37 °C, ≥90% viability decrease).
`CC(C)C[C@H](NC(=O)[C@H](C)NC(=O)CNC(=O)[C@H](CC(C)C)NC(=O)[C@H](CC(C)C)NC(=O)[C@H](CCCCN)NC(=O)[C@H](CCCCN)NC(=O)[C@H](CC(C)C)NC(=O)[C@H](CC(C)C)NC(=O)[C@H](CCCCN)NC(=O)[C@H](CC(C)C)NC(=O)[C@H](CC(C)C)NC(=O)[C@@H](N)CCCCN)C(=O)NCC(N)=O` gave an MIC of 5 µM (Klebsiella pneumoniae; ATCC 700603, CAMHB; 18 h, 37 °C).
